# Experimental data gathered from unrelated publications.
# Parts stem from different laboratories: compare values within a part only.

# Sample 1
# Target: Histone acetyltransferase KAT6A, winged helix 1, GST fusion (KAT6A, Homo sapiens, UniProt Q92794, residues 1-85)
# Technique: protein binding microarray
# Form: double-stranded DNA, one strand shown
# Sample: in vitro
# Concentration: not given
# Setting: 8-mer, flanks averaged, mean of 2 arrays, mostly near background
# Reference: not given
# Reading: higher = stronger binding
# Residues (chain): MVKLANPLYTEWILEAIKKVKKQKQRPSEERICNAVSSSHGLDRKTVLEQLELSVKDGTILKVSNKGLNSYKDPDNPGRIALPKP
Strand,E-score
ACGCTACC,0.254
TGGGCACA,-0.0976
CGTAGCAG,-0.0283
GCCGGCGC,0.465
TAACAAAA,-0.221
AAGACATC,-0.196
AGATCAAA,-0.0773
CCGGATAC,0.145
ATCGCAGC,0.0174
ATATCCCG,0.197
ACCATGGT,-0.116
ACGTCGTG,-0.0729
AAACGATT,-0.144
CGATGTTA,0.0625
AACCCTAG,-0.201
CCATTTGA,-0.0213
AATCAGGA,-0.0608
GACAATGA,-0.108
GCTCTATA,-0.018
CCGAGCGC,0.334
GCGGCTCA,0.283
TCTTGTCA,-0.137
AGCCTTTC,-0.0698

# Sample 2
# Target: Centromere-binding protein 1, full length, His-tagged (CBF1, Saccharomyces cerevisiae, UniProt P17106, residues 1-351)
# Chain of UniProt P17106 (whole entry, looked up): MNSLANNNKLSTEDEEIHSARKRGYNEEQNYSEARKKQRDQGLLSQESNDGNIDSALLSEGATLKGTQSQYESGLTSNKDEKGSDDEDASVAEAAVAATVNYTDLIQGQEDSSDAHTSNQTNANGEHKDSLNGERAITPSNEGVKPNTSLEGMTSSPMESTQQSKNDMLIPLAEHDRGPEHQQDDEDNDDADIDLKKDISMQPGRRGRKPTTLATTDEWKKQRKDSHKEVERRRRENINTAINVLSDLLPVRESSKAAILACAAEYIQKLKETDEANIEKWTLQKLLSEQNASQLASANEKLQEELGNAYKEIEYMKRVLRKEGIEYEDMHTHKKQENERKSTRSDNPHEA
# Technique: competition protein-binding microarray
# Form: double-stranded DNA, one strand shown
# Sample: in vitro
# Concentration: 2 µM
# Setting: whole 60-bp probe, lowest competitor level
# Added: Pho4 competitor, 0.05 µM
# Reading: higher = stronger binding
# Shared flanks, not repeated: … GTCTTGATTCGCTTGACGCTGCTG
Strand,fluorescence intensity [a.u.]
ATTAAGAGAAGGAAGAGCGTGCTAAGCAGGTTCTTC,65.2
TGCCTTACTCGGTATCACATGGAAAAGACCCCCGGC,226
CATACCCAACCTTGTCACTAAACTTAAGATATTTGT,84.6
GTCGTATTATCGAGTCACGTGCTTTATTCCATGGCG,14000
GTAACGATTTACCATCACGTGGATTGTGATATAATT,3220
CAAACTCTCCGAGGACACGTGCCGAACAAAGAATGT,2770
CTTGTACTTCAATCTCACGTTTCTCCATATGAGTCT,135
CCTTTGTCGGTGGTACTCGTGGTGACGGTCCAAGAA,66.6
TGAAGCTATTACTGGCACGCATCCATATCAGCTTAG,73.2
TTCAATGGGACCCATCACGGCCATGACGATATCCAG,66.5
TTTACCCCGGTGCTATTCGTGACGGTAACTATGGAA,67
CAAGTTCCTGGCCATCACGTTGCCTTCTCCTTACGA,226
ATTTGTCAATGCCATCACGATGCAAGTCAGTGATGT,115
AGCTGCCGGCTCGGTCAGGTGGACGAAACAAAAAAG,497
TTTCATGGACTTTTTCACGTGGTCGTTGCCATTTGT,1050
ACAAGTGCTTTAAATGATGTGACGGGTTATTCTGGA,86.5
CAGGCGTCCACCGCTCCCGTGTCGGTGTAACCAAGG,64
TTTTGCTCAAACGGTCGCGTGCTAAGCGGAACGAGA,163
CTTCTGTAAATTTGTCACCCGACTTGACGCGCCCCG,94.2

# Sample 3
# Target: RNA binding protein fox-1 homolog 2, RRM domain, GST-SBP tag (RBFOX2, Homo sapiens, UniProt O43251-10, residues 100-194)
# Technique: RNA Bind-n-Seq
# Form: RNA
# Sample: in vitro
# Concentration: 365 nM
# Setting: natural RNA segment, single round, ends assumed
# Reference: no-protein control
# Reading: higher = stronger binding
# Shared flanks, not repeated: GGGAGUUCUACAGUCCGACGAUC … UGGAAUUCUCGGGUGCCAA
# Residues (chain): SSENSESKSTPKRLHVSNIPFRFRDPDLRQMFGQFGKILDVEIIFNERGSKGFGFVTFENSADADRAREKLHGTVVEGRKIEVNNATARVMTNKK
Strand,RBNS enrichment (R)
CUUAGGGCAGAAACACCAUCCUAUCAGGUUUGGUCAGUCCCUUCUUCAUGAAGGGAGUCAUGGGGAAUUCCUGAAAAUUUUCUUCCUUCUGCAGACAGUUGGAUGAGUCC,0.229
AGCGACAGAGUGGAUAAGUAAAAGGGCGAGGACUGGGACCCUGGUACUCUGAAUGAAGAGCCUGUGCCUCCCUCUCUCCCCUAACAGUUUUAAGGAGAUACAAUUUACCU,1.08
UUCUACUUGGUGUUUGUUCUCUGGAGCUGAUUGCACUUGAGCUCUGUGGUGGGCAGGCGCACUUUAGCCUAAGUUGGGUGCCCCAGGGCACCCCCUCCUCUCUGCUCCUU,2.54
UGGCCCCUGCCCUCUGCCCUUUUGCCUGUCCUCAGGCCGCUGGAACAAAGGAAGGACAGCUCAUUCCUCAUGGGCGAUCACUCCGCAUCUAUAGGGUCGAGCCUAGGGGA,0.615
GGACCUUUGAACUUGCCAGAUACCUUAAGUGUCUUCCCAGAAUCUGCCCACCUGUCAUCAGCCCCCCAGCCCCCCACCACUCAGGGACACUCUGCUAAUAGACACAAGCU,0.424
CUGCCAAGUGAUGGAUUAUAAUGGUCUCUAGCAAAUGUGUGGUAAACAUUCAUAUGGCCAUUAAUUUUAACAUUAAAUCGUAGGUAGGGCAAUGUAGUAAAAUGAAAGAG,0.74
CAGCACCUCCAAAGGUCCCUAGGACACUUUGCCUCUCUUCUCCCCCUGCCCCCCACCCUGCUCCCACAUCUGGGGGCCCAUGGGCCAGGAGUGGAUAAGCCUGCAUUAAU,0.345
AAGUUGGGUUUGGUUCUGUUGUUAUGAUUGUUUUGUCGUGGUGCUUGUGUUCAGUUAUAUUCUCUCUCUCUCUCAUUUCAAAUACUGCUUGACAAUUCGAAAAUGAACCA,2.2

# Sample 4
# Target: Interferon regulatory factor 7, full length, phosphomimetic (IRF7, Homo sapiens, UniProt Q92985, residues 1-503, S101K/S471D/S472D/S475D/S476D/S477D/S483D/S484D/S487D)
# Technique: protein-binding microarray
# Form: double-stranded DNA, one strand shown
# Sample: in vitro
# Concentration: 250 nM
# Setting: 60-bp whole probe
# Added: salmon DNA 0.4 mg/ml
# Reference: random background probes
# Reading: higher = stronger binding
# Shared flanks, not repeated: GCCTAGCAC … GTCTTGATTCGCTTGACGCTGCTG
# Target sequence (chain): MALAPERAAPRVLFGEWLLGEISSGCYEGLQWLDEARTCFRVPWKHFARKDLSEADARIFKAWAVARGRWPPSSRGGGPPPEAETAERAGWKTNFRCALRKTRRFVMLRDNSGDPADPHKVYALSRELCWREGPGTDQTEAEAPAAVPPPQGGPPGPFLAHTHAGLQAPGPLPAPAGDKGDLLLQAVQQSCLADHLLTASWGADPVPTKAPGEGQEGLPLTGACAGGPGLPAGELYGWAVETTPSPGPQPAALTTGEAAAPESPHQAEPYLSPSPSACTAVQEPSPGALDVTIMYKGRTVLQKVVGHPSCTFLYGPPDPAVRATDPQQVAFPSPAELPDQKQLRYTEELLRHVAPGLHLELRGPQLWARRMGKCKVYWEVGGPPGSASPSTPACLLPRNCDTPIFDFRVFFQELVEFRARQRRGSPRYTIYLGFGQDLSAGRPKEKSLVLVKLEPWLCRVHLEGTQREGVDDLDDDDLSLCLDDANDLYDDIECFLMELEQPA
Strand,log fluorescence
CCCTTTCTCAACCTCCAGAGGTGCTAG,2.34 z-score
CTGGCTGGGGTGGTGGCAGTGTGCTAG,-1.48 z-score
TTGGATTTCGGGTATCGATTAGTGCTA,1.51 z-score
GACGGACTGGACACTCGGGACGTGCTA,-0.382 z-score
GACGGTTACGGGTATCGGGACGTGCTA,-0.153 z-score
GACGATCTCAGTTTCGAGCCGTGCTAG,1.63 z-score
GACGATTTCGGTATCGAGACGTGCTAG,1.71 z-score
CCAGGGCTGCCAGCCTCCTCGTGCTAG,-0.864 z-score
TTAAATCTCAGTATCGATTAGTGCTAG,0.944 z-score
TTAGGTCTCCTTATCCTTGAGTGCTAG,0.301 z-score
GAGGGTCTCGGTATCGGGACGTGCTAG,1.12 z-score
TCATTTGACTCTTTCTGACTGTGCTAG,0.992 z-score
TTATCAATCATTTTCGTTTTGTGCTAG,7.61 z-score
TTAAGACTGCTACTGCTTTAGTGCTAG,-0.253 z-score
TCACTCTTCTGGATCTCACTGTGCTAG,0.313 z-score
TTAGGTTTCGTACTGGGTTAGTGCTAG,4.19 z-score
GAAAGAATCACAACTAGGAAGGTGCTA,-0.235 z-score
TTAGGACTGCTGTTCCTTTAGTGCTAG,-0.00145 z-score
TCAAATTTCCCACTTTCACTGTGCTAG,2.64 z-score

# Some of these lines once more (sample 1):
Strand,E-score
CGTAGCAG,-0.0283
GCCGGCGC,0.465
TAACAAAA,-0.221
AAGACATC,-0.196
AGATCAAA,-0.0773
